Experimental data of several laboratories.
± marks the error that the study gave.

With `CN(C)CCCSC(=S)N1CCN(C(=O)/C=C/c2coc3ccccc3c2=O)CC1` the MST response was 838 a.u. (Nucleoprotein (N, Tomato spotted wilt virus, UniProt P25999, Y184A); binding, microscale thermophoresis; 3.906 µM; dose series).
`CS(C)(=O)=Nc1ccc(-c2ccc(-c3nc4cc(O[C@@H]5CO[C@H]6[C@@H]5OC[C@H]6O)[nH]c4cc3F)cc2)cc1` gave an inhibition of 39% (MAPK13 (Homo sapiens, UniProt O15264); enzyme activity, inhibitor; 10 µM).
`CC(C)[C@H]1NC(=O)C[C@H]2/C=C/CCSSC[C@@H](NC1=O)C(=O)N[C@H](Cc1cccc3ccccc13)C(=O)NCC(=O)O2` gave an inhibition of 10.5% (DCLK2 (Homo sapiens, UniProt Q8N568); enzyme activity, inhibitor; 10 µM).
With `N[C@H](C(=O)N1CCCC1)C1CCN(c2nccc3c(-c4ncc(Cl)cc4Cl)cccc23)CC1` the response was 3% (AGTR1 (Homo sapiens, UniProt P30556); functional response, agonist; 10 µM).
`COc1c(N2CC3CCCN(C(=O)OCc4cnc([N+](=O)[O-])s4)C3C2)c(F)cc2c(=O)c(C(=O)O)cn(C3CC3)c12` (centres unmarked) gave an initial rate of 3.28 ± 1.14 µM/min (nfsB (Escherichia coli K-12, UniProt P38489); substrate; added: NADH 100 µM).
With `CN(C)[C@H]1C[C@@]23CC[C@@]4(O2)C(=CC[C@]2(C)[C@@H](c5ccc6ccncc6c5)CC[C@H]24)C=C3[C@@H](O)[C@@H]1O` the inhibition was 10.3% (CLK2 (Homo sapiens, UniProt P49760); ATP probe labelling, inhibitor, KiNativ profiling; 1 µM).
With `N[C@H](Cc1ccccc1)P(=O)(O)O` the ΔH was -7.3 kcal/mol (PAL1 (Petroselinum crispum, UniProt P24481, Y110F); binding, ITC).
`Cc1ccc(N2CC3CCC(C2)N3C)cc1C(=O)N[C@H](C)c1cc(-c2cnn(C)c2)nc2ccccc12` gave a remaining activity of 103% (USP15 (Homo sapiens, UniProt Q9Y4E8); enzyme activity; 10 µM, 0.5 h).
`CCOC(=O)[C@@H]1Cc2c(cc([N+](=O)[O-])cc2[N+](=O)[O-])[C@H](O)[C@]12C(=O)Nc1ccc(Br)cc12` gave a remaining binding of 57% (Aurora kinase A (AURKA, Homo sapiens, UniProt O14965); binding, competition with immobilised ligand; 0.1 µM).
`O=C1NC(=O)c2c1c1cc(F)c[n+]3c1c1c2c2cc(O)ccc2[n]1[Ru-4]312([N]=C=S)[S+]3CC[S+]1CC[S+]2CC3` (centres unmarked) has a remaining activity of 136% (EPHA8 (Homo sapiens, UniProt P29322); enzyme activity; 100 nM, human enzyme, added: 10 µM ATP; baseline: untreated).
For `OB(O)c1cnn(-c2cc(Cl)ncn2)c1`, the selectivity ratio was 131000 (Trypsin (Sus scrofa, UniProt P00761); baseline: Ki trypsin over Ki AmpC).
With `C[C@@H](O)[C@@H]1CN([C@@H](CC2CCCCC2)CN2CCC[C@H]2CN2CCNC[C@@H]2Cc2ccc3ccccc3c2)CCN1CCc1ccc(Cl)c(Cl)c1` the remaining binding was 87.4% (Oprd1 (Rattus norvegicus, UniProt P33533); radioligand binding; rat brain membranes; 500 nM, pH 7.5, 25 °C, added: 2 nM [3H]DPDPE).
`COCC1CCCCN1C(=O)n1cc(C(O)(c2ccccc2)c2ccccc2)nn1` (centres unmarked) — result for “SILAC activity ratio”: 1.22 (Neutral cholesterol ester hydrolase 1 (Mus musculus, UniProt Q8BLF1); probe labelling, inhibitor, competitive ABPP-SILAC, measured: Aadacl1; mouse T cells; concentration not given, 4 h, protein level; baseline: treated over DMSO cells, lower = stronger inhibition).
`Nc1ccn([C@@H]2O[C@H](COP(=O)(O)OP(=O)(O)OP(=O)(O)O)[C@@H](O)[C@H]2O)c(=O)n1` gave a Vmax of 0.71 product fraction (RNA-directed RNA polymerase L (Human respiratory syncytial virus A, UniProt P28887); UTP incorporation, substrate; position +1 downstream of cytidine).
